Experimental data pooled from the literature.
Compare with care: the assays were run in different laboratories. Numbers after ± are the reported error.
Cell line: Vero

The CC50 of `CCN(CC)CCNC(=O)C=CC(Cc1ccccc1)Nc1ccnc2cc(Cl)ccc12` (centres unmarked) is reported as 45 µM (cell growth or viability, MTT; 48 h).
For `Oc1cc(O)cc(Oc2c(O)cc(O)c3c2Oc2c(O)cc(Oc4c(O)cc(O)cc4O)cc2O3)c1`, the CC50 was 446 µM (cell growth or viability, MTT; 72 h).
The CC50 of `CCOC(=O)C(NC(=O)CN1C(=O)/C(=C/c2ccc3c(c2)OCO3)SC1=S)C(C)C` (centres unmarked) is reported as 98.6 µM (cell growth or viability, resazurin; 72 h).
The CC50 of `CCCCCCSc1cccc(O)c(=O)c1O` is reported as greater than 100 µM (cell growth or viability, MTS; 24 h).
The CC50 of `O=C(C=CC(Cc1ccccc1)Nc1ccnc2cc(Cl)ccc12)NCCN1CCOCC1` (centres unmarked) is reported as 149 µM (cell growth or viability, MTT; 48 h).
`CCOC(=O)C(NC(=O)CN1C(=O)N/C(=C\c2ccc3c(c2)OCO3)C1=O)C(C)C` (centres unmarked) gave a CC50 of greater than 100 µM (cell growth or viability, resazurin; 72 h).
The CC50 of `CN[C@H](C)C(=O)N[C@H](C(=O)N1CC[C@@H]2Oc3ccc(OC)c(c3)/C=C\NC(=O)[C@H](Cc3ccccc3)NC(=O)[C@H]21)C(C)C` is reported as 165 µM (cell growth or viability, MTT; 48 h).
The CC50 of `CCCCCCCCC1=C(C(CCCCCCC(=O)OC)OC)C1` (centres unmarked) is reported as greater than 1000 µM (cell growth or viability, MTS; 24 h).
The CC50 of `Cc1cc(NCC(=O)C(C)(C)C)c2nc(N3CCOC[C@H]3C)cc(=O)n2c1` is reported as 180 µM (cell growth or viability, CCK-8; 48 h).
For `O=c1c(O)c(SCc2ccccc2)ccc(SCc2ccccc2)c1O`, the CC50 was greater than 100 µM (cell growth or viability, MTS; 24 h).
For `CCCCCCCCC1=C(CCCCCCCC(=O)O)C1`, the CC50 was 215 ± 15.8 µM (MTS; 24 h, 2% FBS).
`CC(=O)Oc1cc2c(cc1C(C)C)CC[C@H]1[C@](C)(CN3C(=O)c4c(Cl)c(Cl)c(Cl)c(Cl)c4C3=O)CCC[C@]21C` gave a CC50 of 34 µM (cell growth or viability, MTT; 96 h).
The CC50 of `COc1ccc(-n2nc3c(=O)n(-c4cccc(C(=O)NC(C)C)c4)nc(C)c3c2C)cc1` is reported as 300 µM (cell growth or viability).
`CCCCCCCCC1=C(CCCCCCC(=O)OC)C1` has a CC50 of greater than 1000 µM (cell growth or viability, MTS; 24 h).
The CC50 of `CCOC(=O)C(CC)NC(=O)CN1C(=O)S/C(=C\c2ccc(C)cc2)C1=O` (centres unmarked) is reported as greater than 100 µM (cell growth or viability, resazurin; 72 h).
`CCN(CC)CCNC(=O)C(Cc1ccccc1)Nc1ccnc2cc(Cl)ccc12` (centres unmarked) has a CC50 of 118 µM (cell growth or viability, MTT; 48 h).
With `CC[C@H](C)[C@H](NC(=O)[C@@H](C)NC)C(=O)N1CC[C@@H]2Oc3ccc(OC)c(c3)/C=C\NC(=O)[C@H](C(C)C)NC(=O)[C@H]21` the CC50 was greater than 400 µM (cell growth or viability, MTT; 48 h).
The CC50 of `O=c1nc(N2CCC(Oc3ccccc3C(F)(F)F)CC2)sc2c([N+](=O)[O-])cc(C(F)(F)F)cc12` is reported as greater than 10 µM (cell growth or viability).
`O=C1C(O)=C(I)C(=O)c2ccccc21` gave a CC50 of greater than 100 µM (cell growth or viability).
For `O=C(C=CC(Cc1ccccc1)Nc1ccnc2cc(Cl)ccc12)NCCN1CCCCC1` (centres unmarked), the CC50 was 39 µM (cell growth or viability, MTT; 48 h).
The CC50 of `CC(=O)Nc1cccc(Cn2nc(C)c3c(C)n(-c4ccccc4)nc3c2=O)c1` is reported as 361 µM (cell growth or viability).
With `O=c1nc(N2CCC(Oc3ccccc3Cl)CC2)sc2c([N+](=O)[O-])cc(C(F)(F)F)cc12` the CC50 was greater than 10 µM (cell growth or viability).
For `CCOC(=O)C(CC)NC(=O)CN1C(=O)S/C(=C\c2ccc(OC)cc2)C1=O` (centres unmarked), the CC50 was greater than 100 µM (cell growth or viability, resazurin; 72 h).
For `COc1ccc(-n2nc3c(=O)n(Cc4cccc(NC(=O)c5ccccc5)c4)nc(C)c3c2C)cc1`, the CC50 was greater than 1000 µM (cell growth or viability).
`O=C(C=CC(Cc1ccccc1)Nc1ccnc2cc(Cl)ccc12)NCC(=O)N1CCNCC1` (centres unmarked) gave a CC50 of 144 µM (cell growth or viability, MTT; 48 h).
For `CCOC(=O)C(C)NC(=O)CN1C(=O)S/C(=C\c2ccc(F)cc2)C1=O` (centres unmarked), the CC50 was greater than 100 µM (cell growth or viability, resazurin; 72 h).
The CC50 of `O=c1nc(N2CCC(Oc3c(F)cccc3F)CC2)sc2c([N+](=O)[O-])cc(C(F)(F)F)cc12` is reported as greater than 10 µM (cell growth or viability).
`COc1ccc(-n2nc3c(=O)[nH]nc(C)c3c2C)cc1` has a CC50 of 115 µM (cell growth or viability).
The CC50 of `CCCCSc1cccc(O)c(=O)c1O` is reported as greater than 100 µM (cell growth or viability, MTS; 24 h).
For `CN(C)CCNC(=O)/C=C/[C@H](Cc1ccccc1)Nc1ccnc2cc(Cl)ccc12`, the CC50 was 48.8 µM (cell growth or viability, MTS; 48 h).
With `O=c1c(-c2nc3ccccc3s2)cc2c(n1NS(=O)(=O)c1ccc(Cl)cc1)CCCCCC2` the CC50 was 320 µg/mL (cell growth or viability, trypan blue).
For `COc1ccc(Nc2c(C#N)cnc3ccc(Cl)cc23)cc1`, the CC50 was greater than 100 µM (resazurin; 72 h, 10% FBS, no heme).

A few entries again:
`O=C1C(O)=C(I)C(=O)c2ccccc21` gave a CC50 of greater than 100 µM (cell growth or viability).
For `O=C(C=CC(Cc1ccccc1)Nc1ccnc2cc(Cl)ccc12)NCCN1CCCCC1` (centres unmarked), the CC50 was 39 µM (cell growth or viability, MTT; 48 h).
The CC50 of `CC(=O)Nc1cccc(Cn2nc(C)c3c(C)n(-c4ccccc4)nc3c2=O)c1` is reported as 361 µM (cell growth or viability).
With `O=c1nc(N2CCC(Oc3ccccc3Cl)CC2)sc2c([N+](=O)[O-])cc(C(F)(F)F)cc12` the CC50 was greater than 10 µM (cell growth or viability).
For `CCOC(=O)C(CC)NC(=O)CN1C(=O)S/C(=C\c2ccc(OC)cc2)C1=O` (centres unmarked), the CC50 was greater than 100 µM (cell growth or viability, resazurin; 72 h).
